Measurements gathered from unrelated publications.
Compare with care: the assays were run in different laboratories. Values joined by “and” are separate records of one study, mostly repeats; a detail may differ. Numbers after ± are the reported error.
Alpha-amylase: Alpha-amylase (Bos taurus, UniProt Q3MHH8)
FFAR4: Free fatty acid receptor 4 (FFAR4, Homo sapiens, UniProt Q5NUL3)
Sequence of UniProt Q5NUL3 (whole entry, looked up): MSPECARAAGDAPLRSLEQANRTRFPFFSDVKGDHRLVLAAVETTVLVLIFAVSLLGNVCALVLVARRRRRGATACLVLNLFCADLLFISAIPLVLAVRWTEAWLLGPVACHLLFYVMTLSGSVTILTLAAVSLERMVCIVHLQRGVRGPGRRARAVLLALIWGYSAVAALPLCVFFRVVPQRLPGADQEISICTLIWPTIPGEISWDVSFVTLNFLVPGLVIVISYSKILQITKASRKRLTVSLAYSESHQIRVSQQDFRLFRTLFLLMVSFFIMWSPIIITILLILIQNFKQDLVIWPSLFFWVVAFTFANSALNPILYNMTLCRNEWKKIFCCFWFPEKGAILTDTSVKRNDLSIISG
Trypanothione synthetase: Trypanothione synthetase (Trypanosoma brucei brucei, UniProt Q8IEX1)
ROCK1: Rho-associated protein kinase 1 (ROCK1, Homo sapiens, UniProt Q13464)
Sequence of UniProt P61073 (whole entry, looked up): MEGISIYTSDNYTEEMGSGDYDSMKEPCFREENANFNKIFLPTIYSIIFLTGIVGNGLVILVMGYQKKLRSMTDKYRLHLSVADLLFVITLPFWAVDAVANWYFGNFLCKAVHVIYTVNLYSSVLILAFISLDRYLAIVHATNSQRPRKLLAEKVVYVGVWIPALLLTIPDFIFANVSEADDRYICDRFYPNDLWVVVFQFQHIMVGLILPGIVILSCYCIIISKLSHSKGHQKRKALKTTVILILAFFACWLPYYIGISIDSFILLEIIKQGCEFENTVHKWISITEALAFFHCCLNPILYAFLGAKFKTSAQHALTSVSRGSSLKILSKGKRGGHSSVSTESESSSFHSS
Sequence of UniProt Q13464 (whole entry, looked up): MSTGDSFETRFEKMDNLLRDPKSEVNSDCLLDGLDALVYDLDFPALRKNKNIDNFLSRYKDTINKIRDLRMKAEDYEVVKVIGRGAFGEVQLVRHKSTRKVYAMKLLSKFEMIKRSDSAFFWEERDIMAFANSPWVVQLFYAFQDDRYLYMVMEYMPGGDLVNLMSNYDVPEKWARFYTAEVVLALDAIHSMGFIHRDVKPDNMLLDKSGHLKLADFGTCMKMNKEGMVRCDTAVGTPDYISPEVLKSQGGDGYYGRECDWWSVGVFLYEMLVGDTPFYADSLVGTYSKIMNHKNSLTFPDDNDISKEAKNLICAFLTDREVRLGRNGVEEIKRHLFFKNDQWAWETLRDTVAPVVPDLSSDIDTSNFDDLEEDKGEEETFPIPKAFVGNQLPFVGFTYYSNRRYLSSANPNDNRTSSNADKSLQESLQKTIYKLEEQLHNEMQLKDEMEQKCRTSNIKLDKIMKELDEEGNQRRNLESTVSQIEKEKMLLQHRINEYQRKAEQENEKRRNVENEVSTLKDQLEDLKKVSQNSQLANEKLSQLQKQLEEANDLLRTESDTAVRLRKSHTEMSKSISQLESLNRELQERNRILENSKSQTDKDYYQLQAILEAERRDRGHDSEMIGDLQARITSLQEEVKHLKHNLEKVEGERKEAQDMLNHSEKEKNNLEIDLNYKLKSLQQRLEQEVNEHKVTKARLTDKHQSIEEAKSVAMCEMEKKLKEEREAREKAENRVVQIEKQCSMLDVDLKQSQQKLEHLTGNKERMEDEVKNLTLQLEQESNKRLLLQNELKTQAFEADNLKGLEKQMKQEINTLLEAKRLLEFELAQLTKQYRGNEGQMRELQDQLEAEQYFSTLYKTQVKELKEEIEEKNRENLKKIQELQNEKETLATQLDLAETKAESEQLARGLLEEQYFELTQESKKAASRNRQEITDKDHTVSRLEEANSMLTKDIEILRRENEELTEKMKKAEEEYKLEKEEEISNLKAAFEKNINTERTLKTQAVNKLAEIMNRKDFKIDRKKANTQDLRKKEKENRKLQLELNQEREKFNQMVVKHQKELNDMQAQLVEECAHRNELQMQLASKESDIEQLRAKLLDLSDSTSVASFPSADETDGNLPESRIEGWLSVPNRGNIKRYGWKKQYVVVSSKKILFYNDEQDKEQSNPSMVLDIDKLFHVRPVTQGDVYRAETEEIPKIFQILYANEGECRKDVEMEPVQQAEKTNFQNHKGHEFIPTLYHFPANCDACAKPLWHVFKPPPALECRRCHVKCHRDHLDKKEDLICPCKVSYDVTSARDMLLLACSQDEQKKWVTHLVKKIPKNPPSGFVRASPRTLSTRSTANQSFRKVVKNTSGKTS
Sequence of UniProt Q16853 (whole entry, looked up): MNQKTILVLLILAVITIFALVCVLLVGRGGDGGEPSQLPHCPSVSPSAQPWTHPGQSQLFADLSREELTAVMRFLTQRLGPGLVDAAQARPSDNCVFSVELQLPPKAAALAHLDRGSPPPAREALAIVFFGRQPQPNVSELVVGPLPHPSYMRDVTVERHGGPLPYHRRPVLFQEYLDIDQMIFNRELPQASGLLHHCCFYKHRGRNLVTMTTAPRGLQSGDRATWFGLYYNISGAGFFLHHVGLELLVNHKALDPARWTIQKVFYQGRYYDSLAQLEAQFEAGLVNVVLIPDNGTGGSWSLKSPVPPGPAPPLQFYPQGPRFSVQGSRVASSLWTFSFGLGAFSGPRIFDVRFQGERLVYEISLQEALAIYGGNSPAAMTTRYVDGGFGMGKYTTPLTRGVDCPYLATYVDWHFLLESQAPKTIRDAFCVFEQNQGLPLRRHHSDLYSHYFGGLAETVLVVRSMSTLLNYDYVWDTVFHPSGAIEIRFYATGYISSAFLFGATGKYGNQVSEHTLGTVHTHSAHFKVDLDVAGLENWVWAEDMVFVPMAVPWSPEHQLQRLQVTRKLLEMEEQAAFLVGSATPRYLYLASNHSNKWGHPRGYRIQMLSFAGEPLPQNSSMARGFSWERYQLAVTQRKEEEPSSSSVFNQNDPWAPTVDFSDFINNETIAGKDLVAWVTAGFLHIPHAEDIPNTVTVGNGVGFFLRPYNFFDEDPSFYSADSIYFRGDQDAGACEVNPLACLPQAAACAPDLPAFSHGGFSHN
Sequence of UniProt Q8N884 (whole entry, looked up): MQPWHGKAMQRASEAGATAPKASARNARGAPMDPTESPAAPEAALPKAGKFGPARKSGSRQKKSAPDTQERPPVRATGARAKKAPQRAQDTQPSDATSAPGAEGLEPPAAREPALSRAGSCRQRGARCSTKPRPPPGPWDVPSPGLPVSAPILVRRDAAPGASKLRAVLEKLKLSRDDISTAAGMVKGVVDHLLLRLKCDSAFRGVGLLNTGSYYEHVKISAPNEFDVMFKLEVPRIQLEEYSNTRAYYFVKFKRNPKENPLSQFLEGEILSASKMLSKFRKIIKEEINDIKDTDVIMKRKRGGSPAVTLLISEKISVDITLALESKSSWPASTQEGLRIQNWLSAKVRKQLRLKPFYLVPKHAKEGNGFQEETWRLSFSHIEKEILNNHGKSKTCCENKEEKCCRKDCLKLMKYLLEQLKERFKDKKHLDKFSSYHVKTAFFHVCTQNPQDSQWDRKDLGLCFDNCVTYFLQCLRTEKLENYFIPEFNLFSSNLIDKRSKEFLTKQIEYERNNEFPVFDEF
Sequence of UniProt O75460 (whole entry, looked up): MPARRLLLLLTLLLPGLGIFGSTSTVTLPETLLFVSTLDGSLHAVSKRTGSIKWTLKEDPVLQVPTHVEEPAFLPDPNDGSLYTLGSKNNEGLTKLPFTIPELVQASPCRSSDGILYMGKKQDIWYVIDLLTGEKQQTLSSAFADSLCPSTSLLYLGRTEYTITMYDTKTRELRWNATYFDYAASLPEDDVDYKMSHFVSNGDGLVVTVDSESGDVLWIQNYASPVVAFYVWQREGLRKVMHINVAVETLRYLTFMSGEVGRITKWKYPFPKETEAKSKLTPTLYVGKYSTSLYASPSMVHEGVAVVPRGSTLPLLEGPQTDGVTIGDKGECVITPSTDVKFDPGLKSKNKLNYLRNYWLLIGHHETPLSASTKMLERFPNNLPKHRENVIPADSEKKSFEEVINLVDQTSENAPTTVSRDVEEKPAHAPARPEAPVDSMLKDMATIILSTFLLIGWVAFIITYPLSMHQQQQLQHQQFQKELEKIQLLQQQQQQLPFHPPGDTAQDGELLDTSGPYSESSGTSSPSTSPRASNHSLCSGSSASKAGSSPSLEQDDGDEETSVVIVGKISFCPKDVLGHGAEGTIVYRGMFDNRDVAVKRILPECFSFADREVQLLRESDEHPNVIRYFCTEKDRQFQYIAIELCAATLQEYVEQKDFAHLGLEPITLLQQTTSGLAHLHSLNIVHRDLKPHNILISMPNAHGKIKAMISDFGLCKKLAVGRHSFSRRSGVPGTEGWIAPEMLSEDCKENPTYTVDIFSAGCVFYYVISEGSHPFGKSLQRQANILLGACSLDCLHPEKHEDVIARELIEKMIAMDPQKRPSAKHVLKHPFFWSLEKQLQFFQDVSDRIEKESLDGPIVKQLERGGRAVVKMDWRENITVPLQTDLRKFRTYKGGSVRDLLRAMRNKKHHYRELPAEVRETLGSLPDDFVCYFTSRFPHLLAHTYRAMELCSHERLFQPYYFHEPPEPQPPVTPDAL

| SMILES | tested on | test | system | conditions | scale | endpoint | value |
| --- | --- | --- | --- | --- | --- | --- | --- |
| CC1=NN(c2ccc(C)cc2)C(=O)C1=NNc1ccc(S(N)(=O)=O)cc1 | Alpha-amylase | enzyme activity, inhibitor, glucose oxidase | – | 100 µg/mL, together with: dextrin | – | inhibition | 25.5% |
| COc1ccc(CCNc2cc(=O)[nH]c(=O)[nH]2)cc1 | FFAR4 | antagonist, β-arrestin recruitment | CHO cells | 10 µM | – | inhibition | 14 ± 5% |
| CC1=NN(c2cc(Cl)ccc2Cl)C(=O)C1=NNc1ccc(S(N)(=O)=O)cc1 | Alpha-amylase | enzyme activity, inhibitor, glucose oxidase | – | 10 µg/mL, together with: dextrin | – | inhibition | 14.395 ± 0.000265% |
| Cn1cc(-c2cnc3ccc(NC(=O)Nc4ccc(F)c(Br)c4)cc3n2)cn1 | Mitogen-activated protein kinase kinase kinase 12 (MAP3K12, Homo sapiens, UniProt Q12852) | kinase binding, KiNativ profiling, refers to: Lys2 peptide | PANC-1 lysate | 2.5 µM | – | inhibition | 37.9% |
| CC(C)c1noc2ncc(C(=O)c3ccccc3O)cc12 | Voltage-dependent T-type calcium channel subunit alpha-1G (CACNA1G, Homo sapiens, UniProt O43497) | ion current, whole-cell patch-clamp | – | 10 µM, hCav3.1 | – | inhibition | 9.33% |
| CCCCCCCCCNc1cc(=O)[nH]c(=O)[nH]1 | FFAR4 | antagonist, β-arrestin recruitment | CHO cells | 10 µM, together with: 4 µM TUG-891 | – | inhibition | 26 ± 2% |
| CC(C)C[C@H](NC(=O)C[C@H](O)[C@H](CC(C)C)NC(=O)[C@H](Cc1c[nH]cn1)NC(=O)CNC(=O)[C@@H](NC(=O)[C@H](C)NC(=O)[C@H](Cc1c[nH]c2ccccc12)NC(=O)[C@H](CCC(N)=O)NC(=O)[C@@H](Cc1ccccc1)NC(=O)COCCOCCNC(=O)CCC(C(=O)O)N1CCN(CC(=O)O)CCN(CC(=O)O)CCN(CC(=O)O)CC1)C(C)C)C(N)=O (stereo partly shown) [lutetium-177 labelled] | – | – | BALB/c nu/nu mice, small intestine | 100 pmol, 1 h, together with: PA 300 µg | – | tissue uptake | 0.9 ± 0.3 %ID/g |
| O=c1cc(NCCc2cccc(F)c2)[nH]c(=O)[nH]1 | FFAR4 | antagonist, β-arrestin recruitment | CHO cells | 10 µM, together with: 4 µM TUG-891 | – | inhibition | 11 ± 5% |
| COc1ccc(F)cc1C(=O)NCc1ccc(-c2nn([C@@H](C)C(F)(F)F)c(N)c2C(N)=O)cc1 | STE20/SPS1-related proline-alanine-rich protein kinase (STK39, Homo sapiens, UniProt Q9UEW8) | target engagement, competitive chemoproteomics | human PBMCs | 1 µM | – | inhibition | 11.3% |
| CCCCCCNc1cc(=O)[nH]c(=O)[nH]1 | FFAR4 | antagonist, β-arrestin recruitment | CHO cells | 10 µM, together with: 4 µM TUG-891 | – | inhibition | 11 ± 2% |
| Cc1nn(-c2nc3c(F)cc(F)cc3s2)c(O)c1C(c1cccc(C(F)(F)F)c1)c1c(C)nn(-c2nc3c(F)cc(F)cc3s2)c1O | Cyclic GMP-AMP synthase, catalytic domain; with DNA (CGAS, Homo sapiens, UniProt Q8N884) | cGAS phase separation, inhibitor | – | 25 µM | – | inhibition | 85.9% |
| Cn1cnc(Br)c1C1=CN(c2ncnc3[nH]cnc23)CCS1 | Protein kinase C gamma type (PRKCG, Homo sapiens, UniProt P05129) | enzyme activity | – | 2 µM | – | inhibition | 91.7% |
| NC(=O)CN1C(=O)Cc2c([nH]c3ccc(Br)cc23)-c2ccc(Cl)cc21 | Trypanothione synthetase | enzyme activity, inhibitor, BIOMOL Green | – | 30 µM | – | inhibition | 14.5 ± 5.5% |
| S=C(NCCc1ccccc1)NC1CCC(NC(=S)NCCc2ccccc2)CC1 (stereo not shown) | C-X-C chemokine receptor type 4 (CXCR4, Homo sapiens, UniProt P61073) | arrestin recruitment, antagonist, DiscoverX arrestin | – | 30 µM | relative to: control | inhibition | -0.91% and -1.3% |
| O=C(NO)c1ccc(CN2CCCCc3ccccc32)c(F)c1 | benzodiazepine site rat brain | radioligand binding | – | 10 µM | – | inhibition | 18.1% |
| CC1=NN(c2ccc(F)cc2)C(=O)C1=NNc1ccc(S(N)(=O)=O)cc1 | Alpha-amylase | enzyme activity, inhibitor, glucose oxidase | – | 500 µg/mL, together with: dextrin | – | inhibition | 13.8% |
| NC/C(=C\F)COc1cccc(Cn2c(=S)[nH]c(=O)c3[nH]cnc32)c1 | Amine oxidase [copper-containing] 3 (AOC3, Homo sapiens, UniProt Q16853) | H2O2 production, Amplex Red | – | 10 µM, recombinant human enzyme | – | inhibition | 100% |
| O=C(Nc1cccc2c(=O)cc(-c3nnn[nH]3)oc12)c1ccc(OCCCCc2ccccc2)cc1 | Volume-regulated anion channel subunit LRRC8C, part LRRC8A IL1 chimera (LRRC8C, Homo sapiens, UniProt Q8TDW0) | ion current, inhibitor, whole-cell patch clamp | HCT LRRC8-/- cells, transfected | 1 µM, low ionic strength swelling, +100 mV | – | inhibition | 17.9% and 52.8% and 61.6% and 38.8% |
| Cc1cc(-c2ccnc3[nH]cc(F)c23)cc(F)c1[C@@]1(O)[C@H](C)CN(C(=O)CN)C[C@@H]1C | ROCK1 | ATP probe binding, KiNativ | HEK293T cell lysate | 10 µM | – | inhibition | 43.2% |

| SMILES | tested on | test | system | conditions | scale | endpoint | value |
| --- | --- | --- | --- | --- | --- | --- | --- |
| O=C(CN1C(=O)Cc2c([nH]c3ccc(Br)cc23)-c2ccc(Cl)cc21)NCCN1CCCCC1 | Trypanothione synthetase | enzyme activity, inhibitor, BIOMOL Green | – | 30 µM | – | inhibition | 20.5 ± 3.2% |
| CC1=NN(c2ccc(Cl)cc2)C(=O)C1=NNc1ccc(S(N)(=O)=O)cc1 | Alpha-amylase | enzyme activity, inhibitor, glucose oxidase | – | 50 µg/mL, together with: dextrin | – | inhibition | 7.29% |
| CCN1CCN(Cc2ccc(NC(=O)c3ccc(C)c(/C=C/c4cnc5[nH]ccc5c4OC)c3)cc2C(F)(F)F)CC1 | Serine/threonine-protein kinase/endoribonuclease IRE1 (ERN1, Homo sapiens, UniProt O75460) | – | A-375 | 5 µM | – | inhibition | -26.4% |
| NCCNC(=O)CN1C(=O)Cc2c([nH]c3ccc(Br)cc23)-c2ccc(Cl)cc21 | Trypanothione synthetase | enzyme activity, inhibitor, BIOMOL Green | – | 30 µM | – | inhibition | 27.3 ± 5.9% |
| CC1=NCCNC(=O)C1=NNc1ccc(S(N)(=O)=O)cc1 | Alpha-amylase | enzyme activity, inhibitor, glucose oxidase | – | 50 µg/mL, together with: dextrin | – | inhibition | 10.9% |
| O=c1cc(NCCc2ccc(Br)cc2)[nH]c(=O)[nH]1 | FFAR4 | antagonist, β-arrestin recruitment | CHO cells | 10 µM | – | inhibition | 17 ± 3% |
| CC[C@]12CCCN3CCc4c([nH]c5ccccc45)[C@]31N(Cc1cn(Cc3ccccc3)nn1)C(=O)C2 | Histamine H1 receptor (HRH1, Homo sapiens, UniProt P35367) | antagonist, PathHunter | – | 20 µM | – | inhibition | 17% |
| CC1=NOC(=O)C1=NNc1ccc(S(N)(=O)=O)cc1 | Alpha-amylase | enzyme activity, inhibitor, glucose oxidase | – | 10 µg/mL, together with: dextrin | – | inhibition | 5.7582 ± 0.00107% |
| CC(C)CNc1cc(=O)[nH]c(=O)[nH]1 | FFAR4 | antagonist, β-arrestin recruitment | CHO cells | 10 µM | – | inhibition | 20 ± 2% |
| [2H]c1cc(C)c(NC(=O)c2cnc(Nc3cc(N4CCCCC4)nc(C)n3)s2)c(Cl)c1 | ROCK1 | – | – | 0.01 µM | – | inhibition | < 30% |
| COc1ccc(CCNc2cc(=O)[nH]c(=O)[nH]2)cc1OC | FFAR4 | antagonist, β-arrestin recruitment | CHO cells | 10 µM, together with: 4 µM TUG-891 | – | inhibition | -1 ± 8% |
| CC[C@@H]1[C@H](F)C(=O)N[C@@H]1COc1nccc2cc(C(N)=O)c(OC)cc12 | Calcium/calmodulin-dependent protein kinase kinase 2 (CAMKK2, Homo sapiens, UniProt Q96RR4) | ATP-site probe binding, ActivX profiling | THP-1 cell lysate | 0.2 mM, Lys1 site | – | inhibition | -5.9% |
| O=C(O)c1cc(O)c(O)c(O)c1 | Ubiquitin carboxyl-terminal hydrolase 51 (USP51, Homo sapiens, UniProt Q70EK9) | inhibitor | – | 1 µM, 1 h preincubation, together with: Ub-AMC 250 nM | – | inhibition | 100% |
| CC1=NN(c2cccc(C)c2)C(=O)C1=NNc1ccc(S(N)(=O)=O)cc1 | Alpha-amylase | enzyme activity, inhibitor, glucose oxidase | – | 100 µg/mL, together with: dextrin | – | inhibition | 21.9% |
| CCN(Cc1ccccc1C(F)(F)F)C(=O)C1CCN(S(=O)(=O)c2ccc3[nH]ncc3c2)CC1 | rat thyroid hormone receptor | radioligand binding | – | 10 µM | – | inhibition | 5% |
| Cn1cc(-c2ccc(-c3cncc(Cl)c3N3CCC4(CCNC4=O)CC3)cc2)cn1 | COLO 205 | gene expression, microarray, refers to: TIMP2 mRNA | – | concentration not given, 6 h | relative to: untreated cells | log2 fold change | 3.14 |
| CCCCCCCCCCNc1cc(=O)n(C)c(=O)[nH]1 | FFAR4 | antagonist, β-arrestin recruitment | CHO cells | 10 µM, together with: 4 µM TUG-891 | – | inhibition | 15 ± 1% |
| CN(C(=O)n1cnc(-c2ccc[n+]([O-])c2)c1)C1CCCCC1 | Amine oxidase [flavin-containing] B (Maob, Rattus norvegicus, UniProt P19643) | – | – | 10 µM | – | inhibition | 2.47% |

Some of these lines once more:
| SMILES | tested on | test | system | conditions | scale | endpoint | value |
| --- | --- | --- | --- | --- | --- | --- | --- |
| CC1=NN(c2ccc(F)cc2)C(=O)C1=NNc1ccc(S(N)(=O)=O)cc1 | Alpha-amylase | enzyme activity, inhibitor, glucose oxidase | – | 500 µg/mL, together with: dextrin | – | inhibition | 13.8% |
| NC/C(=C\F)COc1cccc(Cn2c(=S)[nH]c(=O)c3[nH]cnc32)c1 | Amine oxidase [copper-containing] 3 (AOC3, Homo sapiens, UniProt Q16853) | H2O2 production, Amplex Red | – | 10 µM, recombinant human enzyme | – | inhibition | 100% |
| O=C(Nc1cccc2c(=O)cc(-c3nnn[nH]3)oc12)c1ccc(OCCCCc2ccccc2)cc1 | Volume-regulated anion channel subunit LRRC8C, part LRRC8A IL1 chimera (LRRC8C, Homo sapiens, UniProt Q8TDW0) | ion current, inhibitor, whole-cell patch clamp | HCT LRRC8-/- cells, transfected | 1 µM, low ionic strength swelling, +100 mV | – | inhibition | 17.9% and 52.8% and 61.6% and 38.8% |
| Cc1cc(-c2ccnc3[nH]cc(F)c23)cc(F)c1[C@@]1(O)[C@H](C)CN(C(=O)CN)C[C@@H]1C | ROCK1 | ATP probe binding, KiNativ | HEK293T cell lysate | 10 µM | – | inhibition | 43.2% |
